Published values of several laboratories.
Each line is one published result; not all experiments were run side by side. ± marks the error that the study gave. ≈ marks a conversion by molar mass, not a printed value.
ACHE: Acetylcholinesterase (ACHE, Homo sapiens, UniProt P22303)

Amino acid sequences for entries named in this document (tags omitted). Residues count along the entry.
UniProt P22303, whole entry, looked up: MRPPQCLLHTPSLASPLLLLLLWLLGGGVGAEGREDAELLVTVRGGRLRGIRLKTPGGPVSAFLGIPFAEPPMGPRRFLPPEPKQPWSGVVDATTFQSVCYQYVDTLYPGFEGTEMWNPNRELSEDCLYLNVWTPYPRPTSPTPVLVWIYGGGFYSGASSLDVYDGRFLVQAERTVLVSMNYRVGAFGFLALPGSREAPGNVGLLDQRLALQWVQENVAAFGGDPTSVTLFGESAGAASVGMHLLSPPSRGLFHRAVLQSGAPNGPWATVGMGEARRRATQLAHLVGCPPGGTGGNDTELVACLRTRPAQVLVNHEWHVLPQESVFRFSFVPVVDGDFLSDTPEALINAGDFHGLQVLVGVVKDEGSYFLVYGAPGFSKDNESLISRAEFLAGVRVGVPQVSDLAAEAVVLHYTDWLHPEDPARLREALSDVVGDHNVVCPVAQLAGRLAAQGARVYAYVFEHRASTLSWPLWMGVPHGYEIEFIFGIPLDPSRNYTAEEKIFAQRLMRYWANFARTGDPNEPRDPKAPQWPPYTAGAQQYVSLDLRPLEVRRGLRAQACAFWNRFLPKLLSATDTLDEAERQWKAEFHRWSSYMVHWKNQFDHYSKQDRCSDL
UniProt P17405, 47-631 limits assumed: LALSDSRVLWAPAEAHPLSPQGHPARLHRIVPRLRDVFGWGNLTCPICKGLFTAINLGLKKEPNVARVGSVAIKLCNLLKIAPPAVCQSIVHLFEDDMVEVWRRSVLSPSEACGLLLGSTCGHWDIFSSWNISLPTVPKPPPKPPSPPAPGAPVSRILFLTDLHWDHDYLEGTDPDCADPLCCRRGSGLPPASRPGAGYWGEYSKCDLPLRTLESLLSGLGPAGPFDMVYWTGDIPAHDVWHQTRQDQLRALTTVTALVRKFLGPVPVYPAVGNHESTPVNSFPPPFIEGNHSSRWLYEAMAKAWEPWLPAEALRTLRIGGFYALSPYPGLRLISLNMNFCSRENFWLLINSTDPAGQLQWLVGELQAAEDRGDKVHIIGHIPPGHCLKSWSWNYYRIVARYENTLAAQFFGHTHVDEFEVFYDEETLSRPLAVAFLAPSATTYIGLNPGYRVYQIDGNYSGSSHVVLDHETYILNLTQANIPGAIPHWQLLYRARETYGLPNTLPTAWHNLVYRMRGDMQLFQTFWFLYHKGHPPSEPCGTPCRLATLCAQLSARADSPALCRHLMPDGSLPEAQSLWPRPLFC
UniProt G4NFI3, 1-514: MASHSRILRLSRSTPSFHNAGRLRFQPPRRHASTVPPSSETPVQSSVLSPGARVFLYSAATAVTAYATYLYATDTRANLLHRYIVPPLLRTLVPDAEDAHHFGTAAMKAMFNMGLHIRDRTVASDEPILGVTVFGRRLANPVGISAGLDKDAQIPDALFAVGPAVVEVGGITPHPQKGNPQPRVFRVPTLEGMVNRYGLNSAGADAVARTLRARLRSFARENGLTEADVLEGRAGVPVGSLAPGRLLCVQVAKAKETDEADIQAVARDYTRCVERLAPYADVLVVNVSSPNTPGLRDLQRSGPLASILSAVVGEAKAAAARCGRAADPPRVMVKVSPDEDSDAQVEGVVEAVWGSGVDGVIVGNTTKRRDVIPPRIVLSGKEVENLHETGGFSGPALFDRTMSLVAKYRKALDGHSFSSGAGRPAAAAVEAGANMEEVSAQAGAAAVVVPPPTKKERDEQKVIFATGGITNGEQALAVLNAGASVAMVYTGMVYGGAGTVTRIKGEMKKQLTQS
UniProt Q99720, whole entry: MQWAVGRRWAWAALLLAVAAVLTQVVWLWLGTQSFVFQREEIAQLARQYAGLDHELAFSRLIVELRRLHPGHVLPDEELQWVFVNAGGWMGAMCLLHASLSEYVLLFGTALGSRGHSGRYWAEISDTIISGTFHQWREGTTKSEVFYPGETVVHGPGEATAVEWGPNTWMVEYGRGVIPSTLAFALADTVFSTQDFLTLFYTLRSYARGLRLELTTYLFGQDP
UniProt P54578, whole entry: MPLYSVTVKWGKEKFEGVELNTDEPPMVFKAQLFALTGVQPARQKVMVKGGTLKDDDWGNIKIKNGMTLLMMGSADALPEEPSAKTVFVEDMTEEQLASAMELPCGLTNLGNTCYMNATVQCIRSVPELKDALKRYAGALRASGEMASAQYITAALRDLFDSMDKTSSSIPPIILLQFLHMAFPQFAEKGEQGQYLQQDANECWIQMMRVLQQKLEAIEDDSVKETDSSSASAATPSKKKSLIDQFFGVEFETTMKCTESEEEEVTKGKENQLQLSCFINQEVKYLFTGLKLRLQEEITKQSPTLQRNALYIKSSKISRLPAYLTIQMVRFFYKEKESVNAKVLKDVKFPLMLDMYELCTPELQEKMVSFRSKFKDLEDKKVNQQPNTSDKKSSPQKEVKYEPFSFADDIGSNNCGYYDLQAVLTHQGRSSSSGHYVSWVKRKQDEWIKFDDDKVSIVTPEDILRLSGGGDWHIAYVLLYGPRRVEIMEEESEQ
UniProt Q05941, 23-502 limits assumed: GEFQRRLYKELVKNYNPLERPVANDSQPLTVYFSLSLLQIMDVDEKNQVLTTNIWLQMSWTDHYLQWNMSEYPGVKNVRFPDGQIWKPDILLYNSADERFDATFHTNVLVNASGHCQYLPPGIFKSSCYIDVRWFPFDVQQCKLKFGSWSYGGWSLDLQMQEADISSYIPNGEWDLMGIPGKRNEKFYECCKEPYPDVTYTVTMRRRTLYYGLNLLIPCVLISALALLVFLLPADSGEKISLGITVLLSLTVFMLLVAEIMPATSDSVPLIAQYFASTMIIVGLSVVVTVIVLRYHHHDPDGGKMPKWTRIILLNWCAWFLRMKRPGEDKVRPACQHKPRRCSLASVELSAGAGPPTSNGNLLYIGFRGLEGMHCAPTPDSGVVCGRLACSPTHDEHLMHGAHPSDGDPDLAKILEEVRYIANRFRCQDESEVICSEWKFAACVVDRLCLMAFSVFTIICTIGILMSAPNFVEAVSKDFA
UniProt Q08881, whole entry: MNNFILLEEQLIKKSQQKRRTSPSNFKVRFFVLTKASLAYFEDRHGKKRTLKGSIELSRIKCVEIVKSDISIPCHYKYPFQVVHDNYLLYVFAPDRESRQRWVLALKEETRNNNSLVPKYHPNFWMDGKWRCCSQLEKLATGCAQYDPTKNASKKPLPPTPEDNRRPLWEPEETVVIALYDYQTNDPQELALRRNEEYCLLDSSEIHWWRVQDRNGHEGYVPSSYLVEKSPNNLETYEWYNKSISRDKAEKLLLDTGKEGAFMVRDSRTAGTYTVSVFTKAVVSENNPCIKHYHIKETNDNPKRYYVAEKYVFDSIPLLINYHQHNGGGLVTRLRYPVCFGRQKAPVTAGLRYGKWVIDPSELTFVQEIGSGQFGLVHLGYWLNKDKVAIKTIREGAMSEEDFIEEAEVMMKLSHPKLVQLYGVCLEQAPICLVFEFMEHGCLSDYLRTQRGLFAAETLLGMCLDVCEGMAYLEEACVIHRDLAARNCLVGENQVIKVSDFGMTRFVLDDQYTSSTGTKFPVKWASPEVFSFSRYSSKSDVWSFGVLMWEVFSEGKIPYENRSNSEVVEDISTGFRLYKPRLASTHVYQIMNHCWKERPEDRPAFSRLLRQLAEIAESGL
UniProt P35462, whole entry: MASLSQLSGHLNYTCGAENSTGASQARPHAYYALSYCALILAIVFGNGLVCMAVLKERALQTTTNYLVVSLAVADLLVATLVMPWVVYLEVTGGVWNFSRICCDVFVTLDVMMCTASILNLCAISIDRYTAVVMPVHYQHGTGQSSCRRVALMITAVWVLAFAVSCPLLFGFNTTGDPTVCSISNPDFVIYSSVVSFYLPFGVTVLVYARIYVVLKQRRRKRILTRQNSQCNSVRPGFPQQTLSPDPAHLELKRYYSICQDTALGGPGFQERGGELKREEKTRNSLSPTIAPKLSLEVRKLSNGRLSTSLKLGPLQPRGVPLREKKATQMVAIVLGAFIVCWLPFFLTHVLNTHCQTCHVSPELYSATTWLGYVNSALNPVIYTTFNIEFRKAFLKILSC
UniProt P11229, whole entry: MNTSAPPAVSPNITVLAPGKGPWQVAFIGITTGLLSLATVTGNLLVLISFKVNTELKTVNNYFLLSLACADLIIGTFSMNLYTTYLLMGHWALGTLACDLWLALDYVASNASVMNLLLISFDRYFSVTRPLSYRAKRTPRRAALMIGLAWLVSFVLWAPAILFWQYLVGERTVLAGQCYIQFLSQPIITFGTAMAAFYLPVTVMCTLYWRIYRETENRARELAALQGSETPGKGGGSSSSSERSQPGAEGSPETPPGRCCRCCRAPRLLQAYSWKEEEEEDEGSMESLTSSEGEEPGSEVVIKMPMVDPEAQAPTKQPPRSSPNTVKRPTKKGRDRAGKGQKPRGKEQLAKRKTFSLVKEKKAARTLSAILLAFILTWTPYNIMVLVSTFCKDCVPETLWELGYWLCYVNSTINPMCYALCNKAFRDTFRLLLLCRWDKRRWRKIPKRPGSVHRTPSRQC
UniProt Q01959, whole entry: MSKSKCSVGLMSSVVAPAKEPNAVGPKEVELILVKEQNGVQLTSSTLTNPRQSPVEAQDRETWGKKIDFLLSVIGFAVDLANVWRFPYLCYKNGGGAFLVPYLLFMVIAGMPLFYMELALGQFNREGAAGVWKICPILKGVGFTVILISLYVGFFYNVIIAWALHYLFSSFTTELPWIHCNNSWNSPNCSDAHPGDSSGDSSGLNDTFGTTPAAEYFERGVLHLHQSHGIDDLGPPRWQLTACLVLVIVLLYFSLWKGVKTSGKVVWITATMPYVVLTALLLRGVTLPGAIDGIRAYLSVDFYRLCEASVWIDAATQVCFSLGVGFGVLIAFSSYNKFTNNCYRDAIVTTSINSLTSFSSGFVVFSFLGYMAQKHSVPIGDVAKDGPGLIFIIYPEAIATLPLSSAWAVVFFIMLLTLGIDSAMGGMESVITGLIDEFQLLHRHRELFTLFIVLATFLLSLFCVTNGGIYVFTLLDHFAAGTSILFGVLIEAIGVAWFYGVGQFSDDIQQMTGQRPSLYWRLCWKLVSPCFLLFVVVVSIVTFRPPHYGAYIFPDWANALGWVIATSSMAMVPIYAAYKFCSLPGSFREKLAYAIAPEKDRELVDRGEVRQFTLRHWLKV

Structure (SMILES) | target or system | assay | system | conditions | scale | measurement | value
O=C(O)c1ccccc1[As](=O)(O)O | SMPD1 (Homo sapiens, UniProt P17405) | enzyme activity |  | concentration not given, pH 6.5, added: sphingomyelin substrate |  | inhibition | inhibited
CC(C)N(Cc1cc(O)ccc1N)C(C)C | ACHE | enzyme activity, inhibitor |  | 1000 µM |  | inhibition | 94%
CC(C)CC(C)c1sccc1NC(=O)c1cn(C)nc1C(F)(F)F (centres unmarked) | Dihydroorotate dehydrogenase (quinone) (Pyricularia oryzae, UniProt G4NFI3, M402V) | enzyme activity |  | up to 10 µM |  | inhibition | no inhibition
Cc1ncc(-c2cc(Cl)ccc2F)cc1-n1c(=O)n(CC(N)=O)c2ccccc21 | SIGMAR1 (Homo sapiens, UniProt Q99720) | binding, radioligand binding |  | 10 µM |  | inhibition | 13.2%
CSCC[C@@H]1NC(=O)[C@H](CC(C)C)NC(=O)[C@H](CCCNC(=N)N)NC(=O)[C@H](CO)NC(=O)[C@@H]2CSSC[C@@H]3NC(=O)[C@H](CO)NC(=O)CNC(=O)[C@H]([C@@H](C)O)NC(=O)[C@H](CSSC[C@H](N)C(=O)N[C@@H](CCCCN)C(=O)NCC(=O)N[C@@H](CCCCN)C(=O)NCC(=O)N[C@@H](C)C(=O)N[C@@H](CCCCN)C(=O)N2)NC(=O)[C@H](CSSC[C@@H](C(N)=O)NC(=O)[C@H](CCCCN)NC(=O)CNC(=O)[C@H](CO)NC(=O)[C@H](CCCNC(=N)N)NC3=O)NC(=O)[C@H](CC(=O)O)NC(=O)[C@H](Cc2ccc(O)cc2)NC1=O | Voltage-dependent P/Q-type calcium channel subunit alpha-1A (Homo sapiens, UniProt O00555) | antagonist | HEK293 | 3 µM |  | inhibition | 12%
CCn1ccc(-c2cc(-c3cnn(C)c3)cc([C@@H](C)NC(=O)c3cc(OCCN(C)C)ccc3C)c2)n1 | USP14 (Homo sapiens, UniProt P54578) | enzyme activity |  | up to 40 µM, added: Ub-AMC substrate |  | inhibition | no inhibition
CCCOc1ccc2nc3ccc(=O)cc-3oc2c1 | Mycobacterium tuberculosis |  | mc2 6206 clofazimine-resistant fbiC mutant | 7 days |  | MIC90 | 7.1 µM (≈ 1.81 µg/mL)
CN(CC1CCN(Cc2ccccc2)CC1)C(=O)c1cn(Cc2ccccc2Cl)nn1 | Chrna7 (Rattus norvegicus, UniProt Q05941) | binding | rat brain membranes | 10 µM, added: radiolabelled α-bungarotoxin |  | inhibition | 79.7 ± 1.9%
CC#C/C(=N\OC[C@H]1COCCN1)c1ccc2ncnc(Nc3ccc(OCc4cccc(F)c4)c(Cl)c3)c2c1 | ITK (Homo sapiens, UniProt Q08881) | kinase activity |  | 10 µM |  | inhibition | 8%
CC(C)[C@H]1CC[C@@H](N2CCC(n3c(CO)cc4ccccc43)CC2)CC1 | DRD3 (Homo sapiens, UniProt P35462) | radioligand binding |  | 10 µM |  | inhibition | 100%
CCCN1CCN(c2ccc3c(c2)C2CC3CCN2C(=O)OCc2ccccc2)CC1 (centres unmarked) | CHRM1 (Homo sapiens, UniProt P11229) | binding, radioligand binding |  |  |  | Ki | 4.06 µM
CCN(CC)Cc1ccccc1O | ACHE | enzyme activity, inhibitor |  | 1000 µM |  | inhibition | 0%
CC(Cc1ccccc1)NCCn1cnc2c1c(=O)n(C)c(=O)n2C (centres unmarked) | SLC6A3 (Homo sapiens, UniProt Q01959) | radioligand binding |  | 10 µM |  | inhibition | 9%
CCN(CC)Cc1cc(O)ccc1N | ACHE | enzyme activity, inhibitor |  | 1000 µM |  | inhibition | 1%
O=c1ccc2nc3ccc(OCc4ccc([N+](=O)[O-])s4)cc3oc-2c1 | Mycobacterium tuberculosis |  | mc2 6206 PA-824-resistant ddn mutant | 7 days |  | MIC90 | > 256 µM
CN(C)Cc1cccc(N)c1O | ACHE | enzyme activity, inhibitor |  | 1000 µM |  | inhibition | 43%
CCN1CCN(Cc2ccc(NC(=O)c3ccc(C)c(/C=C/c4cnc5[nH]ccc5c4OC)c3)cc2C(F)(F)F)CC1 | ETV6-NTRK3 fusion | kinase-CDC37 interaction, inhibitor | human cells | 5 µM | baseline: vehicle | log2 fold change | -1.12

A few entries again:
Structure (SMILES) | target or system | assay | system | conditions | scale | measurement | value
CCN(CC)Cc1cc(O)ccc1N | ACHE | enzyme activity, inhibitor |  | 1000 µM |  | inhibition | 1%
CCn1ccc(-c2cc(-c3cnn(C)c3)cc([C@@H](C)NC(=O)c3cc(OCCN(C)C)ccc3C)c2)n1 | USP14 (Homo sapiens, UniProt P54578) | enzyme activity |  | up to 40 µM, added: Ub-AMC substrate |  | inhibition | no inhibition
CC(C)N(Cc1cc(O)ccc1N)C(C)C | ACHE | enzyme activity, inhibitor |  | 1000 µM |  | inhibition | 94%
